Results collected from several papers.
Lines come from different studies, so protocols differ. “And” joins repeats or separate records; there may be more than shown. ± gives the spread as reported.
USP13 ZnF-UBD domain: Ubiquitin carboxyl-terminal hydrolase 13, ZnF-UBD domain (USP13, Homo sapiens, UniProt Q92995)
Chain of UniProt Q92995 (whole entry, looked up): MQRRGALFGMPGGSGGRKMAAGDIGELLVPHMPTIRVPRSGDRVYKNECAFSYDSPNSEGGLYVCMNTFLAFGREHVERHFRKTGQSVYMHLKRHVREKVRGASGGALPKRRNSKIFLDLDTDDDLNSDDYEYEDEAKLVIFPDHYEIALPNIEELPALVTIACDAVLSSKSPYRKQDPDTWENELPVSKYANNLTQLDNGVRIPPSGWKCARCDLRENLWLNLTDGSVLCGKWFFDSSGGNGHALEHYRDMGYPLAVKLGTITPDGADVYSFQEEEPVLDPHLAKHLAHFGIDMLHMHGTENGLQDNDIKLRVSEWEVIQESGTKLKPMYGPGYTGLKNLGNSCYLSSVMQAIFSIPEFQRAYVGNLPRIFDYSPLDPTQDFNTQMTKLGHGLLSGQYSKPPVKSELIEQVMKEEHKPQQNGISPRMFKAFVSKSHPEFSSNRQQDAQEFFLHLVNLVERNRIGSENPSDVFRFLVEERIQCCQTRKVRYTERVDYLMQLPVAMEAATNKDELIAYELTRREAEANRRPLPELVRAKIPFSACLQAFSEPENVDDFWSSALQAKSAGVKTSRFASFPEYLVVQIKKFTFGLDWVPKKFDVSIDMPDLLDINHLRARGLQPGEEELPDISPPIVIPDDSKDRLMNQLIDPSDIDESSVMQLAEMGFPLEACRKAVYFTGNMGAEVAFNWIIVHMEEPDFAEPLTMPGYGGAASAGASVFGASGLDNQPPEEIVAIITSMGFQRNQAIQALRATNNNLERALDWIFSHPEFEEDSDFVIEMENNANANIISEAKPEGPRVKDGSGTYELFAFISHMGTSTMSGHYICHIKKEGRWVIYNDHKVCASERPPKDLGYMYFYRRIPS
CYP3A4: Cytochrome P450 3A4 (CYP3A4, Homo sapiens, UniProt P08684)
Chain of UniProt P08684 (whole entry, looked up): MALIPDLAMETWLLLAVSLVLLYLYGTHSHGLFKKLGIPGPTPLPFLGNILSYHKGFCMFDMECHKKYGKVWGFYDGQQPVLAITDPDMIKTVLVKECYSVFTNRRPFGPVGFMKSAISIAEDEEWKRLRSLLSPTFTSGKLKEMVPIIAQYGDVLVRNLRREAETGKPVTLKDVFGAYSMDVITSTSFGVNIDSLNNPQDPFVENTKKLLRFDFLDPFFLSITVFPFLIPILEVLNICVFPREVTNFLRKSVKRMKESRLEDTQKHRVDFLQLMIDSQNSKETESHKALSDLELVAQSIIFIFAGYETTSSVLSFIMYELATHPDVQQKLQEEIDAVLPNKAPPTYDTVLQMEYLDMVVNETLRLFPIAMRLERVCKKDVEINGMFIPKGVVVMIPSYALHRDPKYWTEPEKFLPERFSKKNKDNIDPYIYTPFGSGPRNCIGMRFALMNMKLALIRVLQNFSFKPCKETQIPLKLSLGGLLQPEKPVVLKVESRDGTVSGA
Chain of UniProt O70423 (whole entry, looked up): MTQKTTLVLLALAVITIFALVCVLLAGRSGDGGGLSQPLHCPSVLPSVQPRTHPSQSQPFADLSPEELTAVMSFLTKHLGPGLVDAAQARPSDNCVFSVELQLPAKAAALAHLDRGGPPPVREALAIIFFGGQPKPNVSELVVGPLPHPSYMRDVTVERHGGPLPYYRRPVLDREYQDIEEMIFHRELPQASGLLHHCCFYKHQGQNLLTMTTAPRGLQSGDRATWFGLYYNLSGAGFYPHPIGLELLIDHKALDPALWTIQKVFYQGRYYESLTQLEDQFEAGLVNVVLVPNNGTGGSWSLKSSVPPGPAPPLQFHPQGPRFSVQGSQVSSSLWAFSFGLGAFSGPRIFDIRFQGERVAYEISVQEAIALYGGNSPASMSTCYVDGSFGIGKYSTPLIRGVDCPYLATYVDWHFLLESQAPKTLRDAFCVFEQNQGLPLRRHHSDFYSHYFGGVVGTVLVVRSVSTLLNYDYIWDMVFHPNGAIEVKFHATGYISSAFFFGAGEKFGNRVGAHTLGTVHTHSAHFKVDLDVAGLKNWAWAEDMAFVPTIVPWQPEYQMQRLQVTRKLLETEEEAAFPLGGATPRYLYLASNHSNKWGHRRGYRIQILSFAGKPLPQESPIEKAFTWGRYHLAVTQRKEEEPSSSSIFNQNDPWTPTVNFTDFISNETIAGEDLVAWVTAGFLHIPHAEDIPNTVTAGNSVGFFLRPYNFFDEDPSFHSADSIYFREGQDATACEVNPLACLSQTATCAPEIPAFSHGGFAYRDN

Compound	target or system	test	system	setting	scale	quantity	value
CC[C@H](CO)N(CCN(N=O)[C@H](CC)CO)N=O	Salmonella typhimurium	mutagenicity, Ames plate incorporation	TA100	50 µg/plate, without S9, methanol	–	revertant colonies per plate	154 ± 4
COc1cccc(-c2n[nH]c(SCc3ccccn3)n2)c1OC	CHO-WBL	–	–	100 µg/mL, 3 h, without S9	–	binucleated cells with micronuclei	1.2%
Cn1cc(-c2ccc(-c3cncc(Cl)c3N3CCC4(CCNC4=O)CC3)cc2)cn1	COLO 205	gene expression, microarray, refers to: CRYBB1 mRNA	–	concentration not given, 2 h	relative to: untreated cells	log2 fold change	-2.02
O=c1cc(-c2ccccc2)oc2cc(O)c(O)c(O)c12	Caco-2 monolayers	apical to basolateral transport	–	100 µg/mL, 2 h	–	amount transported	7.31 ± 0.01%
O=C(O)CNc1ncccn1	USP13 ZnF-UBD domain	–	–	–	–	Kd	616 µM
Cc1cc(Nc2ncnc3ccc(NC4=NC(C)(C)CO4)cc23)ccc1Oc1ccn2ncnc2c1	CYP3A4	–	human, plasma	oral, 300 mg single dose, day 1, compound alone	–	Cmax (geometric mean)	488 ng/mL
NC1(C(=O)N[C@@H](CCO)c2ccc(Cl)cc2)CCN(c2nc[nH]c3nccc2-3)CC1	–	–	metastatic CRPC patients	480 mg b.i.d., any grade, treatment-related, added: enzalutamide 160 mg daily	–	incidence of lower abdominal pain	20%
O=C(O)CCC1=Nc2cccc3cccc(c23)N1	USP13 ZnF-UBD domain	–	–	–	–	Kd	> 1000 µM
O=C(CCc1ccc(O)cc1)c1c(O)cc(O)cc1O[C@@H]1O[C@H](CO)[C@@H](O)[C@H](O)[C@H]1O	Caco-2 monolayers	basolateral to apical transport	–	100 µg/mL, 2 h	–	amount transported	4.27 ± 2.5%
CCc1cc(C(=O)NC)c2nccc(N3CCc4c(cc(Cn5ccnc5)cc4-c4cn(C)nc4C(F)(F)F)C3=O)c2c1	–	–	Sprague Dawley rat, male, plasma	oral, 50 mg/kg once daily, 7 days, toxicokinetic satellite group	–	MRT(0-inf)	2.5 h
O=c1c(-c2ccc(O)cc2)coc2c([C@@H]3O[C@H](CO)[C@@H](O)[C@H](O)[C@H]3O)c(O)ccc12	Caco-2 monolayers	–	–	100 µg/mL, 2 h	relative to: Papp(BL-AP) over Papp(AP-BL)	efflux ratio	0.12 ± 0.04
CC[C@H]1[C@@H](O)[C@@H]2[C@H](CC[C@]3(C)[C@@H]([C@H](C)CCNC(=O)NS(=O)(=O)c4ccc(C(C)(C)C)cc4)CC[C@@H]23)[C@@]2(C)CC[C@@H](O)C[C@@H]12	CYP3A4	–	human, plasma	dose not given, compound alone	–	Tmax median	4 h
NCc1cc2c(cc1F)C(=O)N(C1CCC(=O)NC1=O)C2 (stereo not shown)	Amine oxidase [copper-containing] 3 (Mus musculus, UniProt O70423)	substrate, LC-MS/MS	recombinant mouse enzyme	10 µM, 8 h, pH 7.4	–	concentration	1700 nM
COc1cc(/C=C/C=C2\SC(=S)NC2=O)cc(OC)c1O	HEK-293T	CellTiter-Glo	–	5 µM, 24 h, unit not given	relative to: untreated	viability	1.05 and 1.01
COc1ccc(-c2coc3cc(O)ccc3c2=O)cc1	Caco-2 monolayers	–	–	100 µg/mL, 2 h	relative to: Papp(BL-AP) over Papp(AP-BL)	efflux ratio	0.63 ± 0.01
Cc1cc(Nc2ccc(S(F)(F)(F)(F)F)cc2)n2nc(C(C)(F)F)nc2n1	Plasmodium falciparum	12-lead ECG	malaria patients	oral, 400 mg, increase above 30 ms	–	patients with QTcF increase	20%

A few entries again:
Compound	target or system	test	system	setting	scale	quantity	value
COc1ccc(-c2coc3cc(O)ccc3c2=O)cc1	Caco-2 monolayers	–	–	100 µg/mL, 2 h	relative to: Papp(BL-AP) over Papp(AP-BL)	efflux ratio	0.63 ± 0.01
